Measured values of several laboratories.
Each numbered part is a random draw from the data of one study; scales do not carry over between parts. Changes are numbered by the printed parent chain.

Block 1 — method: RNA Bind-n-Seq; form: RNA; medium: in vitro; concentration: 365 nM; reference: no-protein control; reading: higher = stronger binding
Target: RNA binding protein fox-1 homolog 2, RRM domain, GST-SBP tag (RBFOX2, Homo sapiens, UniProt O43251-10, residues 100-194)
Setting: natural RNA segment, single round, ends assumed
All sequences stand within: GGGAGUUCUACAGUCCGACGAUC … UGGAAUUCUCGGGUGCCAA
Residues (chain): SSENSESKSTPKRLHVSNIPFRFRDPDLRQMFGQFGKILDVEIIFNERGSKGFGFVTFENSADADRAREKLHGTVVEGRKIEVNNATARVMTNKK
Strand | RBNS enrichment (R)
GUAAUUUUACUCUGACCUGCCGCAGUCACCUCUCACUUAUCUCUUCCACGUACUGCACGGUCGUAUUUCAUGAGCUUUCUGUCCAUAGCACAGAAACAGAGCAGAAAGUA | 1.02
AGCUGUCCCUGUCACCAAGCUCACAGUUCCUCGCCCUGGGUCUAAGGGGUUGGUUGAGGUGGAAGCCCUCCUUCCACGGAUCCAUGUAGCAGGACUGAAUUGUCCCCAGU | 0.263
CCUGGAGAGAGAAGUUGCUUGACGGAUGCCACUUGUCAGGACAGUAUGUGAGUGUCUGGAGACAGCAUAGCUGACCCCAAUCCCCCAGGGCUGAGGACCCCUCCAGGCCC | 0.464
UGGUUUUCUGCCUGUGUGCUGCCCAAGGCUCAAUCAGUGCUAAGCUUCAUAGAUGGCAUAUACCCUUCACCUUCAACUAACAGGAUACUCACCCCAAAGGCGCAGUCAGG | 0.353
UGCAGAAGCCAGAUCUGGGCGCCUGAACCCAAAACCUCGGUGGGCCACGCUCCCAGCAGCCCACAUCUCCGGAGCCUGAGCCUCACCCCAGGAGGGAGCGCCAUCAGAAC | 0.381
CAAGCGUAGACGCCCUUCAGCUGUAGCACAUCUUCAUUUUAUAGUAUCUAUUCAGUUUGUUCUUACUAACUUCUGGUCUUUUAAAAGACGUCAACGGAGGAACCUCGGUU | 0.895
AGAAGGCGUUGAGUAGACAGACUGUUGAGAGGCCACAGAGUGCACUUGGAAAAACUCAUUUCUGUGCUGCAAAGCAAUGGUGGGGAGGCGCAGUGCCGCGACUGCUGUAG | 0.634
ACCGUGCAGGUUGUGGCCGGUUUUCUCCGCAGGUUGAACAUGGAAAUAAAAGCAAACUUGUAUGAAAAACCGGUCUUUCUCCUCUCUUUGAAUGUAGAUAGAGACCUUGA | 1.17
CUCAGGAGGCAGGGUCAGGAGGAUUACAGGUUCAAAGCCAGUCUGGUCUAUAUUAGAAAAAGAAAACUGUCCUUUUGCUAAAGAAAAAUUAAAUGAAUUUUUAAGGCUGA | 0.601
ACAAAAUCUGAACUCUCAAAAGUCUAUUUUUUUAACUGAAAAUGUAAAUUUAUAAAUAUAUUCAGGAGUUGGAAUGUUGUAGUUACCUACUGAGUAGGCGGCGAUUUUUG | 0.605
UCGUUAUCCUCUGCUGUCUCUCUGGCAUCCUAUGAAUCAGAUCAAGCCCAUGCUGUUGUUGGUUUUUAAGGUUUCUUUCAAUAAUAGGCUAAGGAAAGACAUGUUUUUCU | 0.291
GAGGGACUUCUGUUUACCUUCCGCAGCACCCAGCAUCAAAGGACGGACUUCAGGGGACACGUUUAGUAUAUUAAGACAUGCUGAUGGAAACAGUAUCUUCAAAAAAAUCA | 1.14

Block 2 — target: BATF2, bZIP domain (human); method: DHFR protein complementation; medium: yeast; reference: wild-type JUN-FOS pair; reading: higher = stronger binding
Setting: single substitutions, most at no-binding floor
Starting sequence: JUN, bZIP domain (human); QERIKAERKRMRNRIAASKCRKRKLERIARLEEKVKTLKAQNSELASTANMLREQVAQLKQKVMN; partner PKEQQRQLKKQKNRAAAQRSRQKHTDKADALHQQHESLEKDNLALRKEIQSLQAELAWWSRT
Variant | binding fitness [natural log]
E44D | -0.498
N42T | -1.25
A46T | -0.228
A29E | -0.442
S43W | -0.569
V35S | -1.1
K36L | -0.333
L38F | -1.39
Q55V | -0.834
Q41V | -0.331
K39R | -0.161
S43P | -1.37
A49K | -0.556
L52E | -1.15
T48A | -0.39

Block 3 — method: protein-binding microarray; form: double-stranded DNA, one strand shown; medium: in vitro; concentration: 250 nM; setting: 60-bp whole probe; together with: salmon DNA 0.4 mg/ml; reference: random background probes; reading: higher = stronger binding; all sequences stand within: GCCTAGCAC … GTCTTGATTCGCTTGACGCTGCTG
Target: Interferon regulatory factor 7, full length, phosphomimetic (IRF7, Homo sapiens, UniProt Q92985, residues 1-503, S101K/S471D/S472D/S475D/S476D/S477D/S483D/S484D/S487D)
Residues (chain): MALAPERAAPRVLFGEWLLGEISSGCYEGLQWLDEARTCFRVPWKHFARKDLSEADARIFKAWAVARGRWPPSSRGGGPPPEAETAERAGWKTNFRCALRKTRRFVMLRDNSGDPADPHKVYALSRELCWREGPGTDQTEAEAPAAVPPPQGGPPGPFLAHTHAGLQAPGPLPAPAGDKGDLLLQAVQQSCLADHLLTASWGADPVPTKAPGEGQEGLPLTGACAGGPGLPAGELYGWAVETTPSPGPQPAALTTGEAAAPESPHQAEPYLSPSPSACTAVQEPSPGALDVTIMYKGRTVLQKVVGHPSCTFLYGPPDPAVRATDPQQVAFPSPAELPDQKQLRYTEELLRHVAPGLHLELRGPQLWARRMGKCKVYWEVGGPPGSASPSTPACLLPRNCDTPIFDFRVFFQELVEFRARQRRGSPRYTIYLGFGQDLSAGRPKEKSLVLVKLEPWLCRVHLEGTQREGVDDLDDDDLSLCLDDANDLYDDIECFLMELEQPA
Strand | log fluorescence [z-score]
GTCGGACTGGGTCTCGGGACGTGCTAG | -0.0186
AACGGTCTCGGTATCGGGACGTGCTAG | 2.38
ATAGGTATCGGTTTCGGTTAGTGCTAG | 10.6
TTACATTTCAGTTTCGATTAGTGCTAG | 9.24
TTAGGTATCGGTATCGGTAAGTGCTAG | 2.35
TTTGGTATCGGTATCGGTTAGTGCTAG | 3.29
TTAGGACTGCTTTTCCTTAAGTGCTAG | 1.3
TTAGAACTAGGGTTTCGATTAGTGCTA | 6.51
GACGATATCTGGTTTCGAGACGTGCTA | 4.49
GACGGTCTCGGTCTCAGGACGTGCTAG | 0.659
GACGGTAACGACTATCGGGACGTGCTA | -0.667
GACGGACTGGGTAGCGGGACGTGCTAG | -0.722
CACTCTTGCTTTTTAGATCGGTGCTAG | 0.593
TCAGCTTTCTTTTATGCACTGTGCTAG | 0.345
CAGAGCCTCAGGCCTCACACAGTGCTA | -0.79
GACCGTTCCCTTTTCCTGACGTGCTAG | 2.43
TTAGCTTTCAGTTCCGATTAGTGCTAG | 0.892
GACGGTTTCCATATCCTGACGTGCTAG | 4.91
CTGTTTCCATCTCTCAAAAGGTGCTAG | 7.24
TCAAGTTTTGAGCTCTGACTGTGCTAG | -0.153
GACGGACGGGACTATCGGGACGTGCTA | -0.67

Block 4 — method: RNA Bind-n-Seq; form: RNA; medium: in vitro; concentration: 200 nM; setting: whole 134-nt RNA, ends assumed; together with: 150 mM LiCl; reference: input library; reading: higher = stronger binding; library: 7-deaza-guanosine replaces G
Target: Ras GTPase-activating protein-binding protein 1, full length (G3BP1, Homo sapiens, UniProt Q13283)
Sequence of UniProt Q13283 (whole entry, looked up): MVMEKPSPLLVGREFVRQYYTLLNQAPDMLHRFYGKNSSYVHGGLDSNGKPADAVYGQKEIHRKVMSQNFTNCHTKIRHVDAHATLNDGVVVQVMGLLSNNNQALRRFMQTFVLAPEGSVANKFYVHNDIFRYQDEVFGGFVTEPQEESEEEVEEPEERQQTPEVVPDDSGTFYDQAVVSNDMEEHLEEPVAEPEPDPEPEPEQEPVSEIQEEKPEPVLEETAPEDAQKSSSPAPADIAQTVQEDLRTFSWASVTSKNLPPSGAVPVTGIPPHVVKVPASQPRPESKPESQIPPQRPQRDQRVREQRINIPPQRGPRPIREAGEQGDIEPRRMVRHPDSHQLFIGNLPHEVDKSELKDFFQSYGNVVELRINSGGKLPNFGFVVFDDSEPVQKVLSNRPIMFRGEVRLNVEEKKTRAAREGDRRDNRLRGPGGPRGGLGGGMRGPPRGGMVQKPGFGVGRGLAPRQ
All sequences stand within: GGGAGUUCUACAGUCCGACGAUC … UGGAAUUCUCGGGUGUCAAGG
Strand | log2 enrichment
ACCAUGCAGGUGGGCAUCUUUGGGAAGUGGGGCAAGGGGGGGAUAGGGAGGGGAGUAACACUUUGGGAACAGGUGGUCCCAGGUCGUUUC | 0.111
UCCUCAAGUCCUGUGCUACACAUCGUAUGUACCGAAUCGGCCGGCCGGCCGGAAAGUAUUAUGUUACGCCGUUCGGAUCUGCACUUCCAG | 1.52
UUCACAGGUAAGUGGGGCAGUGUCCGGACCAGUGGACGCAGCAGUGGCCUUGGCACCGAUGUGGGCUCCCGGCUAGCUGGCAGAGACGCG | 0.222
UCCUCAAGUCCUGUGCUACACAUCGUAUGUACCGAAUCGGGGAGGAGGGAGGAAAGUAUUAUGUUACGCCGUUCGGAUCUGCACUUCCAG | 0.15
CUCAAGUCCUGUGCUACACAUCGUAUGUACCGAAUCGGGAAGGGGAAGGAAGGAAAGUAUUAUGUUACGCCGUUCGGAUCUGCACUUCCA | -0.656
CAAGUCCUGUGCUACACAUCGUAUGUACCGAAUCGGGAAAGGGAAAAAGGGUGGGAAAGUAUUAUGUUACGCCGUUCGGAUCUGCACUUC | -0.602
UCCUGUGCUACACAUCGUAUGUACCGAAUCGGGGCCCCCGGGCCCCCGGGGCCCCCGGGGAAAGUAUUAUGUUACGCCGUUCGGAUCUGC | -1.61
CACAGACAACACGCACCCAGACAGACACAGAGGGAAGGGGUUGGGAUGGGGACAGGGUGCACAGCAGGGCGGGGUAGGACCCCAGCCCCU | 0.2
AAGUCCUGUGCUACACAUCGUAUGUACCGAAUCGGGAAAAGGGGAAAAGGGAAAAGGAAAGUAUUAUGUUACGCCGUUCGGAUCUGCACU | 0.389
UGGGAGGUGGAUUUUGUUUAUUUUUUUAGCUCAUAUCCAGGGGUGGGAAUUUUUUUUUAAUAUGUGUCAUGAAUAAAGUUGUUUUUGAAA | 0.236
CCUGCUUUUGGGGGUGACCGCCGGAGCGCGGCGUGAGCCCUCCCCCUUGGGAUCCCGCAGCUGACCAGUCGCGCUGACGGACAGACAGAC | -1.98

Block 5 — target: CCNB1, cyclin fold, Cln2 fusion (human); method: yeast growth competition, sequencing; medium: yeast; setting: weak parent motif; reference: not given; reading: higher = stronger binding
Starting sequence: CDKN1A docking peptide (human); SKACRRLFGPVDS
Variant | normalised enrichment score
L7W | 0.224
C4E | 0.0906
R5F | -0.179
G9N | 0.348
P10G | 0.136
R6C | 0.227
C4F | -0.11
A3L | 0.456
K2A | 0.217
R6S | 0.241
G9H | 0.271
A3Q | 0.0833
D12I | -0.0353
F8E | -0.396
S1A | 1.24

Other studies, line by line
Molecule | target | test | test system | setting | how to read | endpoint | value
PhoQ, residues 284 288 289 292 302 303 TTCLQL | PhoP, residues 12 14 15 18 19 HEGLL (Escherichia coli, UniProt P23836) | Sort-seq, refers to: YFP reporter | E. coli | PhoQ-PhoP variant library, together with: 10 µM Mg2+ | reference: high Mg2+ state, higher = stronger signaling | fold induction | 7.57

A few entries again (block 2):
Variant | binding fitness [natural log]
A49K | -0.556
E44D | -0.498
A29E | -0.442
L38F | -1.39
T48A | -0.39
L52E | -1.15
